# Published values gathered from unrelated publications.
# Numbers after ± are the reported error.
# TEC: Tyrosine-protein kinase Tec (TEC, Homo sapiens, UniProt P42680)
# Chain of UniProt P42680 (whole entry, looked up): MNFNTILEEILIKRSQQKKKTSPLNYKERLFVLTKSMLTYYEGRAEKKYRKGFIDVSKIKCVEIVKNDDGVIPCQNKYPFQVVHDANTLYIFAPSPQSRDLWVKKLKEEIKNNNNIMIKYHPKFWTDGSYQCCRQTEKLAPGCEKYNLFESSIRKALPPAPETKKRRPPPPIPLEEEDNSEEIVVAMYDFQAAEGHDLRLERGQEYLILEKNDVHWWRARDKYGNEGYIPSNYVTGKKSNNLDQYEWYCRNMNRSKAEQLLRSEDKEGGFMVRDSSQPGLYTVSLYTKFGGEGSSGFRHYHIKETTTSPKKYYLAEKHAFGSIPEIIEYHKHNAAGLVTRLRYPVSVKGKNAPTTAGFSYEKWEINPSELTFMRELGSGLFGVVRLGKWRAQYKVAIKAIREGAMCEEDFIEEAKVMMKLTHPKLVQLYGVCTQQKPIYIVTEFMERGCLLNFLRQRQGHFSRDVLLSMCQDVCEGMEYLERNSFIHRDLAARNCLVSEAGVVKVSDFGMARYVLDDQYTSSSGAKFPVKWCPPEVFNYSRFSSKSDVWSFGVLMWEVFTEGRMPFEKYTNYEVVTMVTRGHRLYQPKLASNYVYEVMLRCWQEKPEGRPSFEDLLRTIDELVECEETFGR
# STK25: Serine/threonine-protein kinase 25 (STK25, Homo sapiens, UniProt O00506)
# Chain of UniProt O00506 (whole entry, looked up): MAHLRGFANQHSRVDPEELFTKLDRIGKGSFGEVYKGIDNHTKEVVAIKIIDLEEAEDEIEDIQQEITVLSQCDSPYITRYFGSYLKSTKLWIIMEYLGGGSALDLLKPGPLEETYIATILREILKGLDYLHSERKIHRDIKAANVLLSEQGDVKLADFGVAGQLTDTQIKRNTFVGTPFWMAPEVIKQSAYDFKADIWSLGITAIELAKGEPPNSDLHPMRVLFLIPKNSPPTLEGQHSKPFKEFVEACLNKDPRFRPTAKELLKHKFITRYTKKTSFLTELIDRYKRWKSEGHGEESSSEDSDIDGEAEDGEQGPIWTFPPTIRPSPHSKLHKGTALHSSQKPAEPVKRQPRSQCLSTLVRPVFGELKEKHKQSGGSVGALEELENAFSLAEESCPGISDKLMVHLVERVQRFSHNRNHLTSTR
# UCHL1: Ubiquitin carboxyl-terminal hydrolase isozyme L1 (UCHL1, Homo sapiens, UniProt P09936)
# Chain of UniProt P09936 (whole entry, looked up): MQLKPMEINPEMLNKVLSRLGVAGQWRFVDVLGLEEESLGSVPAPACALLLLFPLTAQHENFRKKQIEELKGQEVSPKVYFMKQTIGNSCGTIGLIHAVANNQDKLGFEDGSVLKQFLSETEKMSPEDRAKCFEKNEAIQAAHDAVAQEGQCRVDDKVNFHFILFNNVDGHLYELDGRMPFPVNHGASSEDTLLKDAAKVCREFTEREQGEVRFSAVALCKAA
# Chain of UniProt P48067 (whole entry, unmodified, looked up): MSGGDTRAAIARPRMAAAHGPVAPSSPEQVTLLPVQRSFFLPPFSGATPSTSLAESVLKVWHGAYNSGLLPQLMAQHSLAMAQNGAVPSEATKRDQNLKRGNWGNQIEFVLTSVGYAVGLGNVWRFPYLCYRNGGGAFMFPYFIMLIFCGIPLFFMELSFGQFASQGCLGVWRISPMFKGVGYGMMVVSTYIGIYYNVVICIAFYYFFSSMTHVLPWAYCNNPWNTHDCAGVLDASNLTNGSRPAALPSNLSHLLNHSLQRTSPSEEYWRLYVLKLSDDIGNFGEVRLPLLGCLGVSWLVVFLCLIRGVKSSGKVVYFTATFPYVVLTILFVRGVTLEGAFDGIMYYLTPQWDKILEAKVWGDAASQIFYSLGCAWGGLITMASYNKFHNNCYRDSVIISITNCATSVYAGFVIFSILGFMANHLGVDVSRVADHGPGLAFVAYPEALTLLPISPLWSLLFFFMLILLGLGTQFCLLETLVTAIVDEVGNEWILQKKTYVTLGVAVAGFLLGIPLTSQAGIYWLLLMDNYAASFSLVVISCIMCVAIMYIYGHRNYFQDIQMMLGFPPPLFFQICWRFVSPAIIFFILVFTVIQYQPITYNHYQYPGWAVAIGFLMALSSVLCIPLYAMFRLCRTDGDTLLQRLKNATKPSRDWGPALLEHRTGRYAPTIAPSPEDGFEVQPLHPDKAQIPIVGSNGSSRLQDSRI
# Chain of UniProt Q14289 (whole entry, looked up): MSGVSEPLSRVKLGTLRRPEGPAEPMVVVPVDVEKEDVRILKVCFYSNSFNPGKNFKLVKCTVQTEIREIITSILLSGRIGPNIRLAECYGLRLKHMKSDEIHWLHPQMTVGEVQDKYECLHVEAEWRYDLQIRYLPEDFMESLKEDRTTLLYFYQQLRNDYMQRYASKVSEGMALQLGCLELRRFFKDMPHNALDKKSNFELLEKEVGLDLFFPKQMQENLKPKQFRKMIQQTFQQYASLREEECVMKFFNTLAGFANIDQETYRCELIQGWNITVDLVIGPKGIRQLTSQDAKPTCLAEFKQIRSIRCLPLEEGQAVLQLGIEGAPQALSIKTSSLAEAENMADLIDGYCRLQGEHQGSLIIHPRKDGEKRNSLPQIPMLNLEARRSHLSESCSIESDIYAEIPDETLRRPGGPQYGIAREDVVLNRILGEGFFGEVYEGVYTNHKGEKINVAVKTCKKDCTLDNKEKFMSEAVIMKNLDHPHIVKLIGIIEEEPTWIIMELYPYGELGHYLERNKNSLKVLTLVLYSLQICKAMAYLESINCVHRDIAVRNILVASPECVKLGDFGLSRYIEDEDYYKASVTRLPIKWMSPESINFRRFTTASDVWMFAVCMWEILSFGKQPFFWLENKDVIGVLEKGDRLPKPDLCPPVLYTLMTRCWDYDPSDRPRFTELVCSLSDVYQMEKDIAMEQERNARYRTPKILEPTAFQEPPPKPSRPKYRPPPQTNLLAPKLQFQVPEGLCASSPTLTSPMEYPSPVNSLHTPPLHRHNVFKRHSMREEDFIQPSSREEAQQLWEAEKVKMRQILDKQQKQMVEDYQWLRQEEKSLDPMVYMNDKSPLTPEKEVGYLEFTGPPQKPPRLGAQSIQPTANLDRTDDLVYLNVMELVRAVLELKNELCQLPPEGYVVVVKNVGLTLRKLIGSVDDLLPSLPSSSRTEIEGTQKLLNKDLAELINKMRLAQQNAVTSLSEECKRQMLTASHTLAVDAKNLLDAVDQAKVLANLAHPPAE
# Chain of UniProt P16234 (whole entry, looked up): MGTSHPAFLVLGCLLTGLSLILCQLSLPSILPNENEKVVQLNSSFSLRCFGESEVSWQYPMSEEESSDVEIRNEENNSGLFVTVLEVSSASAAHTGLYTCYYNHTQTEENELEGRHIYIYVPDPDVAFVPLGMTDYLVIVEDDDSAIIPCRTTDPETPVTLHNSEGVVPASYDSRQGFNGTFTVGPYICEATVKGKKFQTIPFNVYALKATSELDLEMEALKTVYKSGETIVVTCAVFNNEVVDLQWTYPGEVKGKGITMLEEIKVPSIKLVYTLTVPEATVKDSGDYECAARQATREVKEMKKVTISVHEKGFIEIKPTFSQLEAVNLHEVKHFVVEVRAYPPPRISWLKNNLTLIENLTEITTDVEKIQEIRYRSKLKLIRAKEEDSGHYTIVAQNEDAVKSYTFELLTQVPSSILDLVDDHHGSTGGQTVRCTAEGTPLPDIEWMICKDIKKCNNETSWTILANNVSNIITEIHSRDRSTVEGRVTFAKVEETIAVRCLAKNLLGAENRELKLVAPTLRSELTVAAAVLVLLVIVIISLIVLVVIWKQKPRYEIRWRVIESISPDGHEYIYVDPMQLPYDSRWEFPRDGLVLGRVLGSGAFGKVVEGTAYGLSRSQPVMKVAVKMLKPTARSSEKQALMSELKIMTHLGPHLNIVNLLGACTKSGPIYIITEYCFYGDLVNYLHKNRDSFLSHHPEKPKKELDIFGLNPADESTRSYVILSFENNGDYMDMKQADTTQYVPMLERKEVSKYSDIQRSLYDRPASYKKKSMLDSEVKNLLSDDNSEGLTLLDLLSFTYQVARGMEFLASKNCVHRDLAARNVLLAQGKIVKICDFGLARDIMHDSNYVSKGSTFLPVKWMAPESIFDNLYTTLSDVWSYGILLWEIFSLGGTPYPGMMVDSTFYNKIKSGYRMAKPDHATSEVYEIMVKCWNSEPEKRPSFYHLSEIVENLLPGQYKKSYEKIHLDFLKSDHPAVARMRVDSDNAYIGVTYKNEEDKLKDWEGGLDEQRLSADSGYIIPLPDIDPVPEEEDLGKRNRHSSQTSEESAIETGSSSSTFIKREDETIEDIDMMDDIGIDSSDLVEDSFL
# Chain of UniProt P97612 (whole entry, looked up): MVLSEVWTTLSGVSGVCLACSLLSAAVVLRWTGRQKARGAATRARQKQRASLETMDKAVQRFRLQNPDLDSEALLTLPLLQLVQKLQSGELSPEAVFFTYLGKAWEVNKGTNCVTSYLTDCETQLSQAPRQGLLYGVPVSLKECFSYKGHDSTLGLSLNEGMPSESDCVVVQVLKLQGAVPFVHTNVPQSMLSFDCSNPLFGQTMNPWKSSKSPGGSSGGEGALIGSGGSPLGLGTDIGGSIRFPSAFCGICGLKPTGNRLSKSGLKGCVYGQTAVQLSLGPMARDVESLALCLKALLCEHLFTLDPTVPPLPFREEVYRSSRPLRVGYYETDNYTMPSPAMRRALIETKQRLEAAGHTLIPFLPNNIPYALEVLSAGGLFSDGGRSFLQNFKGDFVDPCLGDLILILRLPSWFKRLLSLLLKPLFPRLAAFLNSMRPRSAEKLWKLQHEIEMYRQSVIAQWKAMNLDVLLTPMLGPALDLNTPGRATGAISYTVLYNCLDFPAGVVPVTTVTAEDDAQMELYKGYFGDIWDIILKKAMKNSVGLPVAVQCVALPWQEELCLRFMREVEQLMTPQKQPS
Structure (SMILES),tested on,test,system,setting,scale,endpoint,result
Cn1ncc(S(=O)(=O)NC(c2cccc(Cl)c2)c2cccc(Cl)c2)c1C(=O)O,malate dehydrogenase,"enzyme activity, inhibitor",,"200 µM, pH 7.0, 1% DMSO, aggregation counter-screen",,remaining activity,95%
O=C(O)c1ccc(Nc2ncc3c(n2)-c2ccc(Cl)cc2C(c2c(F)cccc2F)=NC3)cc1,human SAPK2a(T106M),kinase activity,,1 µM,,remaining activity,130%
CN(C(=O)n1cnc(-c2ccc[n+]([O-])c2)c1)C1CCCCC1,"Faah (Rattus norvegicus, UniProt P97612)",,"rat, brain","0.1 mg/kg, 6 days",relative to: control,remaining activity,73%
C=CC(=O)N1CCC[C@@H](n2nc(-c3ccc(Oc4ccccc4)cc3)c3c(N)ncnc32)C1,TEC,"kinase activity, inhibitor, HotSpot radiometric",,"100 nM, added: ATP 10 µM",,remaining activity,3 ± 0.4%
CC(C)OCCn1c(=S)[nH]c(=O)c2[nH]ccc21,"Myeloperoxidase (MPO, Homo sapiens, UniProt P05164)","LDL lipid peroxidation, inhibitor, cholesteryl ester hydroperoxide",,3.333 µM,,remaining activity,16.1%
COc1cc(-c2cncc3c2CN(C)Cc2cc(N4CCNCC4)ccc2-3)cc(OC)c1OC,STK25,kinase activity,,"1 µM, human enzyme, added: ATP 10 µM",relative to: DMSO control,remaining activity,103%
C=CC[C@@H]1c2ccc(OC)c(OC)c2CN2CCc3cc4c(cc3[C@H]12)OCO4,"P2X purinoceptor 7 (P2rx7, Mus musculus, UniProt Q9Z1M0, A312V)","ATP-evoked current, inhibitor, whole-cell patch clamp",,"0.1 µM, A312V variant",,remaining activity,97.8%
O=C(O)c1occc1S(=O)(=O)NC1CCSc2c(F)cccc21 (stereo not drawn),malate dehydrogenase,"enzyme activity, inhibitor",,"200 µM, pH 7.0, 1% DMSO, aggregation counter-screen",,remaining activity,123%
C=CC(=O)N1CCC([C@@H]2CCNc3c(C(N)=O)c(-c4ccc(Oc5ccccc5)cc4)nn32)CC1,TEC,"kinase activity, inhibitor, HotSpot radiometric",,"100 nM, added: ATP 10 µM",,remaining activity,8.9 ± 0.1%
COc1cc(F)ccc1-c1ncnc(Nc2cccc(C[S@](C)(=N)=O)c2)n1,"PTK2B (Homo sapiens, UniProt Q14289)",kinase activity,,"10 µM, added: 10 µM ATP",,remaining activity,82%
COc1ccc(F)cc1C(=O)NCc1ccc(-c2nn([C@@H](C)C(F)(F)F)c(N)c2C(N)=O)cc1,STK25,"kinase activity, inhibitor, HotSpot radiometric",,"100 nM, added: ATP 10 µM",,remaining activity,110%
COc1cc(NS(=O)(=O)c2cc(Cl)cc(Cl)c2O)c(F)cc1C#N,malate dehydrogenase,"enzyme activity, inhibitor",,"40 µM, pH 7.0, 1% DMSO, aggregation counter-screen",,remaining activity,73%
CN(C)c1ccc(CNCCC2CCOC(C)(C)C2)cc1.Cl (stereo not drawn),Trypanosoma cruzi,"reporter translation, Renilla luciferase mRNA translation",cell-free extract,40 µM,relative to: DMSO,inhibition,-0.46%
Cc1cccc(C)c1C(=O)OCC(=O)[C@H](CCCCN)NC(=O)[C@H](CCCNC(=N)N)NC(=O)OCc1ccccc1,"Ctsc (Mus musculus, UniProt P97821)",inhibitor,,"0.1 µM, room temperature, added: AMC substrate",,remaining activity,95%
Cc1cc(Nc2cc(N3CCN(C)CC3)nc(Sc3ccc(NC(=O)C4CC4)cc3)n2)[nH]n1,"PDGFRA (Homo sapiens, UniProt P16234)","kinase activity, KinaseProfiler",,"0.03 µM, species human",relative to: control,remaining activity,107%
COc1cc(Nc2ncc3c(n2)-c2ccc(Cl)cc2C(c2c(F)cccc2OC)=NC3)ccc1C(=O)O,FYN,kinase activity,,1 µM,,remaining activity,30%
O=S(=O)(Nc1c(CO)ccc(Cl)c1Cl)c1cccc(Cl)c1O,malate dehydrogenase,"enzyme activity, inhibitor",,"200 µM, pH 7.0, 1% DMSO, aggregation counter-screen",,remaining activity,81%
Cc1cc(NC(=O)c2cccc(NC(=O)/C=C/CN(C)C)c2)ccc1Nc1nccc(-c2cccnc2)n1,"MAPK8 (Homo sapiens, UniProt P45983)","enzyme activity, inhibitor",,"2.79e-05 µM, 6 h, unit not given, added: GSH 10 mM pre-incubation",relative to: vehicle,remaining activity,1.01
Cn1ncc(S(=O)(=O)NC2CCOc3c(Cl)cccc32)c1C(=O)O (stereo not drawn),malate dehydrogenase,"enzyme activity, inhibitor",,"200 µM, pH 7.0, 1% DMSO, aggregation counter-screen",,remaining activity,89%
NC/C(=C\F)COc1cccc(Cn2c(=S)[nH]c(=O)c3[nH]cnc32)c1,"Peroxidasin homolog (PXDN, Homo sapiens, UniProt Q92626)",Amplex UltraRed,,10 µM,relative to: control,remaining activity,42.3%
N#Cc1ccccc1CSCCNC(=O)C1(C(=O)O)CC=CCC1 (stereo not drawn),malate dehydrogenase,"enzyme activity, inhibitor",,"200 µM, pH 7.0, 1% DMSO, aggregation counter-screen",,remaining activity,82%
CNc1ncc2c(/C=C/C(=O)N3CCC(OC)CC3)nn(Cc3cccc(C(F)(F)F)c3)c2n1,"EPHA1 (Homo sapiens, UniProt P21709)","kinase activity, inhibitor",,1 µM,relative to: untreated control,remaining activity,101%
CC1C(C)[C@H](C(=O)NCCc2nnnn2-c2ccccc2)[C@@H]1C(=O)[O-].[Na+] (stereo partly drawn),malate dehydrogenase,"enzyme activity, inhibitor",,"200 µM, pH 7.0, 1% DMSO, aggregation counter-screen",,remaining activity,95%
C[C@@H](Oc1ccc(S(C)(=O)=O)cc1C(=O)N1C[C@@H]2C[C@]2(c2cc(C(F)(F)F)on2)C1)C(F)(F)F,"SLC6A9 (Homo sapiens, UniProt P48067, G373S)","glycine uptake, inhibitor, [3H]glycine uptake",,"0.0001 µM, G319S mutant, log concentration -1, added: [3H]glycine",relative to: no inhibitor,remaining activity,98.6%
CC#CC(=O)N1CCC[C@H]1c1nc(-c2ccc(C(=O)Nc3ccccn3)cc2)c2c(N)nccn12,STK25,"kinase activity, inhibitor, HotSpot radiometric",,"100 nM, added: ATP 10 µM",,remaining activity,99.35 ± 0.5%
N#Cc1c(Br)nc(-c2cccc(Cl)c2)c(C#N)c1N,UCHL1,"covalent, intact protein LC-MS",,12.5 µM,,labelling,9.91%
O=C(NC1CCC1)c1ccc2nc(-c3cccc(NS(=O)(=O)NCCN4CCCCC4)c3)cn2c1,"CDPK1 (Plasmodium falciparum, UniProt P62344)",enzyme activity,,10 µM,,remaining activity,94%
Clc1ccc(Cn2cc(-c3ccccc3)[n+]3c2CCC3)cc1Cl.[Cl-],Trypanosoma cruzi,"reporter translation, Renilla luciferase mRNA translation",cell-free extract,40 µM,relative to: DMSO,inhibition,-10.3%
C=CC(=O)N1CCC[C@@H](n2nc(-c3ccc(Oc4ccccc4)cc3)c3c(N)ncnc32)C1,"TLK2 (Homo sapiens, UniProt Q86UE8)",,,1 µM,,remaining activity,44.9%
Cc1csc(-n2c(C)cc(C(=O)CCl)c2C)n1,UCHL1,"covalent, intact protein LC-MS",,12.5 µM,,labelling,31.9%
O=[N+]([O-])c1ccc(N=Nc2c(O)ccc3ccccc23)c([N+](=O)[O-])c1,"KDM4A (Homo sapiens, UniProt O75164)",,,concentration not given,,remaining activity,73%
Cn1ncc(S(=O)(=O)NC2(c3cc(F)cc(Br)c3)CC2)c1C(=O)O,malate dehydrogenase,"enzyme activity, inhibitor",,"200 µM, pH 7.0, 1% DMSO, aggregation counter-screen",,remaining activity,103%
CCCOc1ccc(OC)c(F)c1C(=O)c1ccc(C(=O)N[C@@H]2CNC[C@H]2NC(=O)c2ccc3[nH]ncc3c2)cc1,"MET (Homo sapiens, UniProt P08581, Y1230H)",enzyme activity,,10 µM,,remaining activity,42%

# For quick reference, copied from above:
Structure (SMILES),tested on,test,system,setting,scale,endpoint,result
N#Cc1c(Br)nc(-c2cccc(Cl)c2)c(C#N)c1N,UCHL1,"covalent, intact protein LC-MS",,12.5 µM,,labelling,9.91%
O=C(NC1CCC1)c1ccc2nc(-c3cccc(NS(=O)(=O)NCCN4CCCCC4)c3)cn2c1,"CDPK1 (Plasmodium falciparum, UniProt P62344)",enzyme activity,,10 µM,,remaining activity,94%
